Experimental data pooled from the literature.
Parts stem from different laboratories: compare values within a part only. Positions count from the first letter of the parent shown.
Chain of UniProt P16234 (whole entry, looked up): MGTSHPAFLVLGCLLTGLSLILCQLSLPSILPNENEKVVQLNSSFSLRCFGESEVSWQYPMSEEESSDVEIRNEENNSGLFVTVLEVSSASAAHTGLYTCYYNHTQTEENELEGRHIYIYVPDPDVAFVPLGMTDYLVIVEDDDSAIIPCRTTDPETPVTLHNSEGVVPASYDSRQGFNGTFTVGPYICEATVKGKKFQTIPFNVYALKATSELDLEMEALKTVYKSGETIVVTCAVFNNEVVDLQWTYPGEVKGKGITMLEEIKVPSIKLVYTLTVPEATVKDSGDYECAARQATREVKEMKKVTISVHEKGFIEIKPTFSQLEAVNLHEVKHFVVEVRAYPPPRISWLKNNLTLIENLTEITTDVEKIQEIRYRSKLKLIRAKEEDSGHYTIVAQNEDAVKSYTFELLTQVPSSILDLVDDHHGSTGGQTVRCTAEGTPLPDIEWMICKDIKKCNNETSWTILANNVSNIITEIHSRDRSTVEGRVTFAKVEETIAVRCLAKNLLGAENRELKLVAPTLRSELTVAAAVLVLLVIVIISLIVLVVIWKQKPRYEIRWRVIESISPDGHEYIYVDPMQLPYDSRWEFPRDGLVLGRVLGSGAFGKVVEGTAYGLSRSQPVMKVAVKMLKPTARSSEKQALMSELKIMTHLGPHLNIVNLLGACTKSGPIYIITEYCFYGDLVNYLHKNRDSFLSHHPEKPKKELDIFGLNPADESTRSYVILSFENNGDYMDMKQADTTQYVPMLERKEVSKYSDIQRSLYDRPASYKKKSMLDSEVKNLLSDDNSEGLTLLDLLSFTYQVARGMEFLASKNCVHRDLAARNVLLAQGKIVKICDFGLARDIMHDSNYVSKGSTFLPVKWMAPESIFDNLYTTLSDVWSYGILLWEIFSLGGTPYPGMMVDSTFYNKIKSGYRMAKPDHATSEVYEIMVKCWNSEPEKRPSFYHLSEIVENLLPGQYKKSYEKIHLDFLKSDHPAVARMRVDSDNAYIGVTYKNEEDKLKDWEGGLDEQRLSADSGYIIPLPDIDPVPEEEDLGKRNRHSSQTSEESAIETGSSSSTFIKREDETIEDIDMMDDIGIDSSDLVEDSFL

Series 1 — technique: RNA Bind-n-Seq; molecule type: RNA; sample: in vitro; concentration: 1 µM; notes: whole 134-nt RNA, ends assumed; added: 150 mM KCl; reference: input library; reading: higher = stronger binding
Target: Ras GTPase-activating protein-binding protein 1, RRM domain (G3BP1, Homo sapiens, UniProt Q13283)
Chain of UniProt Q13283 (whole entry, looked up): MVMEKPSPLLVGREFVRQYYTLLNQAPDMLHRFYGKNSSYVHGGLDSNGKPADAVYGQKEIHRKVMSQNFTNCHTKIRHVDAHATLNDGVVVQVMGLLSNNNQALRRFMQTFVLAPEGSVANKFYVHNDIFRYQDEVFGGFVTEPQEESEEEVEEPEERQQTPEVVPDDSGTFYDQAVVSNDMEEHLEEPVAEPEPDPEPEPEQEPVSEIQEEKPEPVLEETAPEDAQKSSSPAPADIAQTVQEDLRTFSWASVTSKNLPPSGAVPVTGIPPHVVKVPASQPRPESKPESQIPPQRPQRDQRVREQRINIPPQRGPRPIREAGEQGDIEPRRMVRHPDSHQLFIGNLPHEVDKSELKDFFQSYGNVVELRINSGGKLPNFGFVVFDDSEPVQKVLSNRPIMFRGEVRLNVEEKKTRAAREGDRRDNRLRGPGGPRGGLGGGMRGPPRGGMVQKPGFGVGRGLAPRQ
Shared flanks, not repeated: GGGAGUUCUACAGUCCGACGAUC … UGGAAUUCUCGGGUGUCAAGG
| Sequence | log2 enrichment |
| --- | --- |
| CCUGUGCUACACAUCGUAUGUACCGAAUCGGGGUUUUUUUGGGGAAAAAAAGGGGUGGGGAAAGUAUUAUGUUACGCCGUUCGGAUCUGC | 0.0851 |
| ACCAUGCAGGUGGGCAUCUUUGGGAAGUGGGGCAAGUGGGGGAUAGGGAGGGGGGUAACACUUUGGGAACAGGUGGUCCCAGGUCGUUUC | -0.484 |
| UCCUGUGCUACACAUCGUAUGUACCGAAUCGGAAAAAAGGGAAAAAAGGGAAAAAAGGGAAAGUAUUAUGUUACGCCGUUCGGAUCUGCA | 0.061 |
| UAGGUAUUUCUGGGAAAAGCCAGCUUCUGUUUGCACUGGUCUUCACAACUCGUUACCUGGAUCUUUUUACUUCAUUUAUUUCAUUGUAUA | -0.296 |
| AAGUCCUGUGCUACACAUCGUAUGUACCGAAUCGGGAAAGGGAAAGGGGAAAGGGGAAAGUAUUAUGUUACGCCGUUCGGAUCUGCACUU | 0.602 |
| CCUCAAGUCCUGUGCUACACAUCGUAUGUACCGAAUCGGUUUGGUGGUUUGGAAAGUAUUAUGUUACGCCGUUCGGAUCUGCACUUCCAG | -0.268 |
| CACAGACAACACGCACCCACACAGACACAGAGGGAAGGGGUUGGGAUGGGGACAGGGUGCACAGCAGGGCGGGGUAGGACUCCAGCCCCU | -0.314 |
| GUGCUACACAUCGUAUGUACCGAAUCGGGGUUUUUUUGGGGUUUUUUUGGGGUUUUUUUGGGGAAAGUAUUAUGUUACGCCGUUCGGAUC | 0.98 |

Series 2 — technique: universal PBM; molecule type: double-stranded DNA, one strand shown; sample: in vitro; concentration: not given; reading: higher = stronger binding
Target: Sal-like protein 4, full length isoform B (SALL4, Homo sapiens, UniProt Q9UJQ4-2, residues 1-616)
Notes: 8-mer, flanks averaged, mean of replicates
| Sequence | E-score |
| --- | --- |
| ACACAATA | 0.271 |
| CGAGGGAC | -0.357 |
| AAGGCTAT | 0.0658 |
| ACCTGAGT | -0.0979 |
| ACTATGAA | 0.335 |
| CACGCTAG | -0.0474 |
| AGAAATTA | 0.343 |
| AGGAAAAA | 0.265 |

Series 3 — technique: DHFR PCA, dose-response; sample: yeast; notes: Hill fit, mean, not affinity; added: (+)-ABA, dose series; reading: lower = more sensitive
Target: ABI1, truncated, D143A, DHFR fusion (Arabidopsis thaliana, UniProt P49597)
Parent: PYL1, truncated, DHFR fusion (Arabidopsis thaliana, UniProt Q8VZS8); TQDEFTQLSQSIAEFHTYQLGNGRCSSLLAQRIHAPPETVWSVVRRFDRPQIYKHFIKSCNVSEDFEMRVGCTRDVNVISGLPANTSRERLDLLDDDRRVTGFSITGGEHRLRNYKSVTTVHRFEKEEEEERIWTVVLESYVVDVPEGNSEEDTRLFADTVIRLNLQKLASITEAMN
| Substitution | ABA EC50 |
| --- | --- |
| H122D | 25 µM |
| V136R | 667 µM |
| I105A | 112 µM |
| A170C | 2.82 µM |
| S104F | 457 µM |
| R123N | 2.22 µM |
| A170K | 1.67 µM |
| E64I | 7.48 µM |

Mixed results
| SMILES | target | assay | setting | scale | quantity | result |
| --- | --- | --- | --- | --- | --- | --- |
| O=C1c2ccccc2-c2nc3nnnn3nc21 | Platelet-derived growth factor receptor alpha (PDGFRA, Homo sapiens, UniProt P16234) | enzyme activity, inhibitor | 0.5 µM | reference: control | remaining activity | 44.1% |
